# Measured values pooled from the literature.
# Numbers after ± are the reported error.
Substance,cell line,assay,conditions,how to read,measurement,value
COC1=C(OC)C(=O)C(CCCCCCCCCC[P+](c2ccccc2)(c2ccccc2)c2ccccc2)=C(C)C1=O,Pfa1 tamoxifen-inducible Gpx4 knockout,,concentration not given,reference: decylubiquinone,fold concentration to prevent ferroptosis,100 fold
CC1(C(=O)Nc2ccc(OS(=O)(=O)c3ccc(F)cc3)cc2)c2ccccc2-c2ccccc21,HeLa,"cell growth or viability, MTT","100 µM, 24 h",,inhibition,23.5%
NC(=O)c1ccc(-c2nc(-c3ccc4c(c3)OCO4)c(-c3ccccn3)[nH]2)cc1,C2C12 cells,"inhibitor, Western blot","10 µM, 1 h, together with: TGF-beta 5 ng/mL",,Smad2 phosphorylation,inhibited
C=CCNc1c(O)cc2c(O)c1C[C@@H](C)C[C@H](OC)[C@H](O)[C@@H](C)/C=C(\C)[C@H](OC(N)=O)[C@@H](OC)/C=C\C=C(/C)C(=O)N2,NCI-H1650,"client protein degradation, degrader, measured: HER2, mutant EGFR, Akt, cRaf","24 h, all four clients degraded",,EC50,10 to 46 nM
CSCC[C@@H](N)C(=O)O,EG7 wild-type and GFP-transduced (IDO-negative),tryptophan uptake,together with: 3H-L-tryptophan,,Ki,10000 to 30000 nM
C#C[C@@]1(O)[C@@H](CO)O[C@@H](n2cc(Cl)c3c(N)ncnc32)[C@@H]1O,LOX IMVI,"cell growth or viability, SRB",48 h,,GI50,59 nM
CCCCCCCCCCCCCCCCCCOc1ccccc1CC(=O)OCC[N+](CC)(CC)CC,58 cancer cell lines,,10 µM,,mean growth inhibition,75.5%
CNC(=O)c1cc(O[C@H]2CC[C@H](NC(=O)Nc3ccc(Cl)c(C(F)(F)F)c3)CC2)ccn1,ACHN,"cell viability, MTT",72 h,,EC50,7500 ± 700 nM
CCCCCC(=O)C=CC=O,rat DRG neurons,intracellular calcium rise,"3 µM, together with: AITC 50 µM",,responding neurons,~25%
COC(=O)c1ccc(Cl)nc1N(C)c1ccc(OC)cc1,human tumour cell panel,"cell growth, SRB","range over compounds, cells",,GI50,200 to 260 nM
COc1nn2cc(-c3ccc(OC(F)(F)F)cc3)nc2s1,washed human platelets,antagonist,"316 nM to 1 µM, 20 min preincubation, together with: 200 µM PAR4-AP",,platelet aggregation,inhibited
fibrinogen,K562 expressing αMβ2,annexin V flow cytometry,"1 µM, 24 h, 37 °C",,apoptotic cells,3 ± 1%
CCN(CC)CCCC(C)Nc1ccnc2cc(Cl)ccc12 (stereo not shown),human monocyte-derived macrophages,,"50 µM, 120 h",reference: untreated,intracellular amyloid beta 40 retention,increased
CCOC(=O)c1ccc(Cl)nc1N(C)c1ccc(OC)cc1,human tumour cell panel,"cell growth, SRB","range over compounds, cells",,GI50,190 to 1810 nM
angiostatin,K562 expressing αMβ2,annexin V flow cytometry,"1 µM, 24 h, 37 °C",,apoptotic cells,55 ± 10%
CNC(=O)c1ccc(N2C(=S)N(c3ccc(C#N)c(C(F)(F)F)c3)C(=O)C2(C)C)cc1F,22Rv1,,"10 µM, 48 h, androgen-free",,PSA inhibition,no inhibition
bacitracin,human monocyte-derived macrophages,,"1 mg/mL, 120 h",reference: untreated,intracellular amyloid beta 40 retention,increased
CC1(C(=O)Nc2ccc(OS(=O)(=O)c3ccccc3F)cc2)c2ccccc2-c2ccccc21,HeLa,"cell growth or viability, MTT","100 µM, 24 h",,inhibition,10.7%
CCCCCCCCCCCCCCCCCCOc1ccccc1CC(=O)OCC[N+]1(C)CCCC1,58 cancer cell lines,,10 µM,,mean growth inhibition,70.4%
N=C(N)c1ccc(C(=O)N2CCN(C(=O)c3cc(CN4CCN(C(=N)N)CC4)cc([N+](=O)[O-])c3)CC2)cc1,mouse F9 cells,"CHRM4 and SCN3A gene activation, activator, RT-PCR, measured: CHRM4 and SCN3A mRNA",,,lowest active concentration,5 to 10 µM
N#CC(=C(/N)Sc1ccccc1N)/C(C#N)=C(/N)Sc1ccccc1N,A2780,"cell proliferation, resazurin",72 h,,EC50,12600 nM
O=[N+]([O-])c1ccc(Sc2cccc[n+]2[O-])c2nonc12,HEK-293T,reporter gene,,reference: VP16-CREB over CREB transcription,IC50 ratio,~3 fold
CSCC[C@@H](N)C(=O)N[C@@H](Cc1c[nH]cn1)C(=O)N[C@@H](CCCNC(=N)N)C(=O)N1CCC[C@H]1C(=O)N1CCC[C@H]1C(=O)N[C@@H](CO)C(=O)N[C@@H](C(=O)NCC(=O)N[C@@H](CO)C(=O)N[C@H](CCCNC(=N)N)C(=O)N[C@@H](C(=O)N[C@H](Cc1ccc(O)cc1)C(=O)N[C@H](CO)C(=O)N[C@H](Cc1ccccc1)C(=O)O)C(C)C)[C@H](C)O,MC-38,"MTT, cell count, colony formation","100 µM, up to 10 days",,cell proliferation and colony formation,no effect
Cc1ccc(-n2nc(C(C)(C)C)cc2NC(=O)Nc2ccc(OCCN3CCOCC3)c3ccccc23)cc1,HT-29,IL-8 secretion,"1 µg/mL, together with: IL-1β 1000 ng/mL",,maximum inhibition,33%
C=C[C@@]1(C)CC(=O)[C@]2(O)[C@@]3(C)[C@@H](O)CCC(C)(C)[C@@H]3[C@H](O)[C@H](OC(C)=O)[C@@]2(C)O1,CHO-KOR GloSensor,"cAMP level, agonist",,,EC90,2000 nM
CN(c1ccc(C#N)cc1)c1nc(Cl)ccc1[N+](=O)[O-],human tumour cell panel,"cell growth, SRB","range over compounds, cells",,GI50,21000 to 27000 nM
CN(Cc1cnc2nc(N)nc(N)c2n1)c1ccc(C(=O)N[C@@H](CCC(=O)O)C(=O)O)cc1,HBL-1,"cell viability, ATP luminescence","72 h, folate-depleted medium",,EC50,13 nM
CO[C@H]1C[C@@H]2CC[C@@H](C)[C@@](O)(O2)C(=O)C(=O)N2CCCC[C@H]2C(=O)O[C@H]([C@H](C)C[C@@H]2CC[C@@H](O)[C@H](OC)C2)CC(=O)[C@H](C)/C=C(\C)[C@@H](O)[C@@H](OC)C(=O)[C@H](C)C[C@H](C)/C=C/C=C/C=C/1C,HT-29,"cell growth or viability, SRB",72 h,,GI50,4200 nM
COC(=O)c1ccc(NC(=O)CNNc2nc3ccccc3c(=O)n2-c2ccccc2)cc1,MCF7,annexin V/PI staining,"2.5 µM, 24 h",,necrotic cells,9.28%
COc1nn2cc(-c3cc4cc(OC(F)(F)F)ccc4n3C)nc2s1,washed human platelets,antagonist,"10 µM, 10 min, together with: γ-thrombin 40 nM",,platelet aggregation,inhibited
COc1cc(-c2noc(-c3cccs3)c2C(F)(F)F)cc(OC)c1OC,MCF7,PI flow cytometry,"IC50, 48 h",,cells in G0/G1-phase,63.7%
NS(=O)(=O)c1ccc(NC(=O)CNNc2nc3ccccc3c(=O)n2-c2ccccc2)cc1,MCF7,annexin V/PI staining,"2.5 µM, 24 h, Early apoptosis",,apoptotic cells,6.11%
CC(=NNC(=S)NN=C(C(=NO)c1ccccc1)c1ccccc1)c1ccccc1C,MCF7,"Western blot, measured: cleaved caspase-3","IC50 concentration, 24 h",reference: untreated,relative protein level,2.37 ± 0.05
COc1ccc(S(=O)(=O)Oc2ccc(NC(=O)c3ccc(C)cc3)cc2)cc1,HeLa,"cell growth or viability, MTT","100 µM, 24 h",,inhibition,> 50%
CC[C@H](C)[C@H](NC(=O)[C@H](CCCCN)NC(=O)[C@@H](NC(=O)[C@H](CCC(N)=O)NC(=O)[C@@H](N)CCCNC(=N)N)[C@@H](C)CC)C(=O)N[C@@H](Cc1c[nH]c2ccccc12)C(=O)N[C@@H](Cc1ccccc1)C(=O)N[C@@H](CCC(N)=O)C(=O)N[C@@H](CC(N)=O)C(=O)N[C@@H](CCCNC(=N)N)C(=O)N[C@@H](CCCNC(=N)N)C(=O)N[C@@H](CCSC)C(=O)N[C@@H](CCCCN)C(=O)N[C@@H](Cc1c[nH]c2ccccc12)C(=O)N[C@@H](CCCCN)C(=O)N[C@@H](CCCCN)C(N)=O,SK-MEL-2,confocal Raman difference spectroscopy,"25 µM, room temperature, throughout cytoplasm scan region",,time to cytoplasmic detection,2 to 3 min
CN1CCN(c2ccc(Nc3ncc4cc(C#N)c(=O)n(C5CCCC5)c4n3)cc2)CC1,"primary patient MCL, ibrutinib-sensitive and -resistant",Annexin V,24 h,,apoptosis onset concentration,500 nM
COc1nn2cc(-c3ccc(Cl)cc3)nc2s1,washed human platelets,antagonist,"316 nM to 1 µM, 20 min preincubation, together with: 200 µM PAR4-AP",,platelet aggregation,inhibited
C#C[C@@]1(O)[C@@H](CO)O[C@@H](n2cc(I)c3c(N)ncnc32)[C@@H]1O,LOX IMVI,"cell growth or viability, SRB",48 h,,GI50,60 nM
CCc1c2c(nc3ccc(O)cc13)-c1cc3c(c(=O)n1C2)COC(=O)[C@]3(O)CC,"U-87 MG, transferrin receptor blocked",XTT,"concentration not given, 72 h, together with: T7-PEG4-N3 10-fold molar excess, 1 h preincubation",,viability,< 30%
COc1ccc(S(=O)(=O)Oc2ccc(NC(=O)c3ccccc3)cc2)cc1,HeLa,"cell growth or viability, MTT","100 µM, 24 h",,inhibition,7.1%
COc1ccc(N(C)c2nc(Cl)ccc2[N+](=O)[O-])cc1,human tumour cell panel,"cell growth, SRB","range over compounds, cells",,GI50,1550 to 3000 nM
C=CC(=O)Nc1cccc(N2C(=O)OC(C)c3cnc(Nc4ccc(N5CCN(C)CC5)cc4OC)nc32)c1 (stereo not shown),TMD8,flow cytometry,"1000 nM, 48 h",,G1 cells,~82.7%
O=C(Nc1ccc(OS(=O)(=O)c2ccc(I)cc2)cc1)c1ccccc1,HeLa,"cell growth or viability, MTT","100 µM, 24 h",,inhibition,12.6%

# Some of these lines once more:
Substance,cell line,assay,conditions,how to read,measurement,value
N#CC(=C(/N)Sc1ccccc1N)/C(C#N)=C(/N)Sc1ccccc1N,A2780,"cell proliferation, resazurin",72 h,,EC50,12600 nM
O=[N+]([O-])c1ccc(Sc2cccc[n+]2[O-])c2nonc12,HEK-293T,reporter gene,,reference: VP16-CREB over CREB transcription,IC50 ratio,~3 fold
CSCC[C@@H](N)C(=O)N[C@@H](Cc1c[nH]cn1)C(=O)N[C@@H](CCCNC(=N)N)C(=O)N1CCC[C@H]1C(=O)N1CCC[C@H]1C(=O)N[C@@H](CO)C(=O)N[C@@H](C(=O)NCC(=O)N[C@@H](CO)C(=O)N[C@H](CCCNC(=N)N)C(=O)N[C@@H](C(=O)N[C@H](Cc1ccc(O)cc1)C(=O)N[C@H](CO)C(=O)N[C@H](Cc1ccccc1)C(=O)O)C(C)C)[C@H](C)O,MC-38,"MTT, cell count, colony formation","100 µM, up to 10 days",,cell proliferation and colony formation,no effect
Cc1ccc(-n2nc(C(C)(C)C)cc2NC(=O)Nc2ccc(OCCN3CCOCC3)c3ccccc23)cc1,HT-29,IL-8 secretion,"1 µg/mL, together with: IL-1β 1000 ng/mL",,maximum inhibition,33%
C=C[C@@]1(C)CC(=O)[C@]2(O)[C@@]3(C)[C@@H](O)CCC(C)(C)[C@@H]3[C@H](O)[C@H](OC(C)=O)[C@@]2(C)O1,CHO-KOR GloSensor,"cAMP level, agonist",,,EC90,2000 nM
CN(c1ccc(C#N)cc1)c1nc(Cl)ccc1[N+](=O)[O-],human tumour cell panel,"cell growth, SRB","range over compounds, cells",,GI50,21000 to 27000 nM
